# Experimental data gathered from unrelated publications.
# Every numbered part comes from another study and shows a few of its results, in no order.
# UniProt O15294, sequence (whole entry, looked up): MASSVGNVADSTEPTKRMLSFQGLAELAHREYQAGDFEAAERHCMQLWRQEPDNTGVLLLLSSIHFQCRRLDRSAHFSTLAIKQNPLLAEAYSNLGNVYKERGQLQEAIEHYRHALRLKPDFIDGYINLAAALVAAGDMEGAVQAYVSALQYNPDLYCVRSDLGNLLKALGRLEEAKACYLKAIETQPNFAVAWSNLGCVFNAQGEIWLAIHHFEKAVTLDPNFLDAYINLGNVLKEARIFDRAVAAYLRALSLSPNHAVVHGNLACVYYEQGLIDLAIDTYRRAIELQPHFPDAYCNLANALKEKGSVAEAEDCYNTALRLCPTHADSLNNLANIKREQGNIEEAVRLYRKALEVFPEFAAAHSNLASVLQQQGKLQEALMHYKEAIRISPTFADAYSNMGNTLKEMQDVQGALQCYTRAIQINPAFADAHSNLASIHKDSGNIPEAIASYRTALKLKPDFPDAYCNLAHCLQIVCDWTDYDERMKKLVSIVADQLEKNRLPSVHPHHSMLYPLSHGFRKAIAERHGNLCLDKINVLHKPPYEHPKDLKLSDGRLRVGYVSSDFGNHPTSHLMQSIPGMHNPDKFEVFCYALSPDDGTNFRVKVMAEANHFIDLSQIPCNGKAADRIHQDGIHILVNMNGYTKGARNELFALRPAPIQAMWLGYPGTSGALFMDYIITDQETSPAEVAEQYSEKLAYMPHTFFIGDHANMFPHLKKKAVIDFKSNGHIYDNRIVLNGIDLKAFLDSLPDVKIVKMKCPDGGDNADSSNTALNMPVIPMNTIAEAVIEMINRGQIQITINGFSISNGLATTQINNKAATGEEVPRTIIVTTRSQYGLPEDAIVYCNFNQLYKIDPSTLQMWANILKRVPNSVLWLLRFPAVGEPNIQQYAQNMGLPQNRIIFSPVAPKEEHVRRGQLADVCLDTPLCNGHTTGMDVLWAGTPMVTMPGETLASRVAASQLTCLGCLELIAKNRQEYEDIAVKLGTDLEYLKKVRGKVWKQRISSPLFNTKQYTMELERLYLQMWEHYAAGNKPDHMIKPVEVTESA

# Series 1
# Target: TAR DNA-binding protein 43, full length, His tag (TARDBP, Homo sapiens, UniProt Q13148, residues 1-414)
# Technique: RNA Bind-n-Seq
# Molecule type: RNA
# Sample: in vitro
# Concentration: 20 nM
# Notes: 6-mer, flanks averaged, single round
# Added: 150 mM KCl
# Reference: input library
# Direction: higher = stronger binding
Oligonucleotide,6-mer enrichment (R)
GUUAGC,0.785
AUCAGC,0.637
UAAACC,0.588
UAGCUC,0.593
AUUAAG,0.652
GGACGA,1.72
CGUAUC,0.589
AUUUCC,0.57

# Series 2
# Target: POU, POU domain (Salpingoeca helianthica)
# Technique: Spec-seq
# Molecule type: double-stranded DNA, one strand shown
# Sample: in vitro
# Concentration: not given
# Notes: whole probe, mean of replicates
# Reference: not given
# Direction: lower = stronger binding
# Constant ends, left off below: GAGTCGTCTCGTCAGCACA … CCGTAGAGCACTCAGGTC
# Residues (chain): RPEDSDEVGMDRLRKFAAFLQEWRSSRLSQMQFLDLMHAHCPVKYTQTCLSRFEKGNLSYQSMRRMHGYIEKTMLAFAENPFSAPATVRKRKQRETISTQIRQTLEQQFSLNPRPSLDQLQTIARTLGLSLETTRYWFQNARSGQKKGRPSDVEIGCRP
Oligonucleotide,relative binding energy [ln ratio]
TTGATAT,0.677
TGCGACA,1.22
AGATAAT,0.156
TGCAGAA,1.18
TCGTGAT,0.891
TGCGCAG,1.59
TAGTAAT,0.511
TCACGAT,1.2

# Other studies, line by line
Substance,target,assay,test system,conditions,how to read,quantity,value
"PhoQ, residues 284 288 289 292 302 303 AGHLVA","PhoP, residues 12 14 15 18 19 QWHVF (Escherichia coli, UniProt P23836)","Sort-seq, item: YFP reporter",E. coli,"PhoQ-PhoP variant library, added: 10 µM Mg2+","reference: high Mg2+ state, higher = stronger signaling",fold induction,9.63
HRDLHFHTSWNYHRI,"UDP-N-acetylglucosamine--peptide N-acetylglucosaminyltransferase 110 kDa subunit (OGT, Homo sapiens, UniProt O15294)","binding, phage display NGS",peptide,concentration not given,reference: input library,enrichment fold change,3.63

# For quick reference, copied from above (series 2):
Oligonucleotide,relative binding energy [ln ratio]
TCGTGAT,0.891
